Published values pooled from the literature.
Values joined by “and” are separate records of one study, mostly repeats; a detail may differ. ± marks the error that the study gave.

CNC(=O)c1ccc(-c2cnc3ncc(Cc4ccc5ncccc5c4)n3n2)cc1F — result for “Pyrexia treatment discontinuation”: 0% (Japanese patients; oral, 400 mg, grade 3/4).
For CC(=O)c1cc(NS(=O)(=O)c2cc(Cl)cc(Cl)c2O)ccc1F, “DLS scattered light intensity” read 526000 counts/s (colloidal aggregate formation, dynamic light scattering; 50 mM potassium phosphate buffer; 200 µM, pH 7.0, 1% DMSO; higher = more aggregation).
Under “number of Moderate TRAE events”, NCCONC(=O)[C@@H]1CC[C@@H]2CN1C(=O)N2OS(=O)(=O)O is recorded as 0 (healthy Chinese male subjects; intravenous, 2 g).
COc1ccnc(C[S+]([O-])c2nc3ccc(OC(F)F)cc3[nH]2)c1OC (stereo not drawn) gave a CL of 155 mL/min (human, plasma; intravenous, median).
For [O]=[Co].[O]=[Co][O][Co]=[O], the haemoglobin was 11.1 mmol/L (Crl:CD(SD) rat female, blood; oral, 734 mg Co/kg/day, 90 days).
With CCCOc1ccc(-c2ccc(C#N)cc2)cc1 the concentration was 1.34 ng/mL (item: compound; human pregnant women, male fetuses, cord serum; dose not given, paired maternal-cord samples, mean).
With O=C(O)CC[C@H](NC(=O)N[C@@H](CCCCNC(=O)[C@H](Cc1ccc2ccccc2c1)NC(=O)[C@H]1CC[C@H](CNC(=O)CN2CCN(CC(=O)O)CCN(CC(=O)O)CCN(CC(=O)O)CC2)CC1)C(=O)O)C(=O)O the tumour-to-tissue ratio was 233 ± 68.5 (male BALB/c nude mice, LS174T-PSMA xenografts, salivary gland; intravenous, 0.3 nmol, 2 h, radiolabelled (111In or 99mTc); relative to: tumour over salivary gland).
O=C(Nc1nc2cccc(-c3ccc(CN4CCS(=O)(=O)CC4)cc3)n2n1)C1CC1 — result for “treatment-emergent adverse events”: 0% (item: arthropod sting allergy; rheumatoid arthritis patients; oral, 300 mg once daily, 4 weeks, any relatedness).
With COc1ccc2c(c1)CN(C(=O)CCN1CCC(Cc3ccccc3)CC1)CC[S@@+]2[O-] the heart rate was 69 ± 13 beats/min (telemetry; conscious dog; intravenous, 2 mg/kg, 4 h).
FC(F)(F)c1ccc(CNc2ccc(Cc3c[nH]c4ncc(Cl)cc34)cn2)cn1: “dry mouth incidence” 7% (patients with advanced solid tumours; oral, 1000 mg/day, all patients, all grades).
C[C@@H]1OC(=O)[C@H](Cc2ccccc2)[C@H]1O: “Freundlich coefficient KF” 3.71 mL/g (soil adsorption; clay soil; pH 7.6, organic carbon 1.7 %).
COc1ccc(Br)c(CCNS(=O)(=O)c2ccsc2C(=O)O)c1: “DLS scattered light intensity” 458000 counts/s (colloidal aggregate formation, dynamic light scattering; 50 mM potassium phosphate buffer; 200 µM, pH 7.0, 1% DMSO; higher = more aggregation).
For O=C(O)CCC(=O)O.[2H]C([2H])([2H])Oc1cc(C)c2[nH]ccc2c1CN1CC[C@@H](C2CC2)C[C@H]1c1ccc(C(=O)O)cc1, “TEAE decreased white cells” read 0% (healthy Chinese subjects; 600 mg, single ascending dose).
For O=C1Cc2cc(CCN3CCN(c4nsc5ccccc45)CC3)c(Cl)cc2N1, the QTc interval was 403 ± 0.4 ms (male Hartley guinea pig, anaesthetized; intravenous infusion, 1 mg/kg, 10 min infusion, post-infusion).
With CN(CCCN1CCN(C(=O)CN2CCN(CC(=O)[O-])CCN(CC(=O)[O-])CCN(CC(=O)[O-])CC2)CC1)c1ccc2nccc(C(=O)NCC(=O)N3CC(F)(F)C[C@H]3C#N)c2c1.[68Ga+3] the uptake was 0.1 %IA/g (mice, HT-1080.hFAP and HT-1080 wild-type xenografts, intestine; iv, 500 pmol, 4 h post injection).
CC#CC(=O)N1CC[C@@H](n2c(=O)n(-c3ccc(Oc4ccccc4)cc3)c3c(N)ncnc32)C1 has a Tmax, median of 2 h (human, fasting, plasma; oral, 320 mg once daily, cycle 1 day 1).
The AUC(0-tlast) of CC(=O)c1cc(C(=O)N[C@@H](C)Cn2ccc(-c3ccc(C#N)c(Cl)c3)n2)[nH]n1 is reported as 93400 ng·h/mL (human, fasted, plasma; oral solution, 300 mg 14C-darolutamide, geometric mean).
With O=C(O)CSc1nnc(Br)n1-c1ccc(C2CC2)c2ccccc12 the body weight was 31 g and 35.2 g and 39 g and 37.2 g and 32.4 g and 34.6 g (KM mouse, chronic hyperuricaemia model; dose not given, day 21).
Under “unbound plasma trough concentration”, CCn1ncc2c1-c1cnc(N)c(c1)O[C@H](C)c1cc(F)ccc1-c1nn(C)nc1C2 is recorded as 0.6 ± 0.2 nM (female athymic nude mice, sample A PDX; oral, 0.04 mg/kg once daily for 1 days, 12 h).
C[C@@H](Nc1cc(F)cc(F)c1)c1cc(C(=O)N(C)C)cc2c(=O)cc(N3CCOCC3)oc12 gave an AUC(0-12) of 1560 ng·h/mL (human; oral, 60 mg twice daily, vistusertib alone, 5:2 schedule, steady state).
Cc1cnc(N2CC3(CCOCC3)C2)c(C(=O)Nc2ccc(C(=O)N3CCc4cc(C(=O)Nc5c(C)cccc5F)sc4-c4ccccc43)cc2)c1 gave a concentration of 17700 ng/mL (human, nasal epithelial lining fluid; inhaled, 5 mg twice daily, 12 h).
Cc1cc(C)cc(NC(=O)Nc2ccc(N3CCCCC3)cc2)c1 has an HC50 of over 128 µg/mL (haemolysis; sheep erythrocytes; 1 h, pH 7.5).
Under “discontinuation due to adverse events”, C[C@@H]1CS/C(=N\NC(=O)C(=O)[C@@H](NC(=O)C2CCCCCC2)C2CCOCC2)N1C is recorded as 2% (healthy postmenopausal women; dose not given; relative to: subjects).
Under “Irwin test score”, O=C1NCCc2nc(OCc3cccc(F)c3)ccc21 is recorded as 0 (item: Lacrimation; Sprague-Dawley rat male; oral, 100 mg/kg, 0 min; relative to: baseline, direction not given).
Cc1ccc([C@@H]2O[C@H](CO)[C@@H](O)[C@H](O)[C@H]2O)cc1Cc1ccc(-c2ccc(F)cc2)s1 — result for “urinary chloride excretion change”: 7.08 mEq (Japanese type 2 diabetes patients; 400 mg, day 16, 24 h urine collection; relative to: baseline).
The half-life of Cc1nc(-c2cnc(NC(C)C)n(C)c2=O)ccc1Oc1ccnc(-c2cnn(C)c2)c1 is reported as 6.82 h (Beagle dog, male, plasma; intravenous, 1 mg/kg).
Cn1c(C(F)(F)F)cc(=O)n(-c2cc(Oc3cccnc3OCC(=O)O)c(Cl)cc2F)c1=O has an AUC(0-24 h) of 1440 ng·h/mL (Crl:CD(SD) rats, female, plasma; oral diet, 50 ppm in diet, day 1, 90-day toxicity study).
With CNC(=O)c1cc(Oc2ccc(NC(=O)Nc3ccc(Cl)c(C(F)(F)F)c3)cc2)cc[n+]1[O-] the AUC(0-7.5 h) was 150 ng·h/mL (mouse, wild type, plasma; oral, 10 mg/kg, without rifampin, geometric mean).
Under “nucleoside remaining fraction”, CO[C@@H]1[C@H](O)[C@@H](CO)O[C@H]1n1c([N+](=O)[O-])nc2c(=O)[nH]c(N)nc21 is recorded as 0.423 (depurination, RP-HPLC; citrate-phosphate buffer 0.5 mM; 5440 min, pH 7, 37 °C).
O=C(O)c1cccc(C(=O)O)c1: “apparent dissolution enthalpy” 3.49 kcal/mol (betaine/glycerol DES-water; DES mass fraction 0.80).
N[C@@H]1c2ccccc2OC12CCN(c1cnc3c(N4CCCc5ncccc54)n[nH]c3n1)CC2 has an AUC(0-tau) of 12300 ng·h/mL (patients advanced solid tumours, plasma; oral, 150 mg once daily, cycle 1 day 15).
For O=C(O)CCCOc1ccc([18F])cc1-c1cc(-c2ccccc2C(F)(F)F)n(-c2ccccc2)n1, the radioactivity uptake was 0.91 ± 0.11 SUV (gamma counting; male ddY mice, muscle; intravenous, 2.1 MBq, 15 min).
The k2 of O=C(OC(C(F)(F)F)C(F)(F)F)N1CCN(Cc2cccc(Oc3ccccc3)c2)CC1 is reported as 0.038 min⁻¹ (PET blocking study; rhesus monkey, brain OCC; 0.01 mg/kg, compound pretreatment, with: [18F]T-401 tracer).
COc1ccc2c(c1)CC(C)CC2NS(=O)(=O)c1cccc(Cl)c1O (stereo not drawn) — result for “DLS scattered light intensity”: 400000 counts/s (colloidal aggregate formation, dynamic light scattering; 50 mM potassium phosphate buffer; 200 µM, pH 7.0, 1% DMSO; higher = more aggregation).
For COc1ccc(C[C@@H](C)[C@@H](C)Cc2ccc(OC)c(OC)c2)cc1OC, the half-life was 9.3 ± 0.072 h (beagle dog, male, plasma; oral, 1000 mg/kg/day, day 28, 28-day repeat-dose toxicity study).
With Cl.[2H]C([2H])([2H])CC(=O)c1cnc(NC(=O)C2CC2)cc1Nc1cccc(-c2ncn(C([2H])([2H])[2H])n2)c1OC the CL/F was 10.8 L/h (geometric mean; human; 40 mg twice daily, day 7, fed, liquid, multiple dose).
CCc1cc(C(=O)NC)c2nccc(N3CCc4c(cc(Cn5ccnc5)cc4-c4cn(C)nc4C(F)(F)F)C3=O)c2c1: “blood HDW change” 13% (Sprague Dawley rats; oral, 100 mg/kg twice daily, 7 days; relative to: vehicle).
NC1(C(=O)N[C@@H](CCO)c2ccc(Cl)cc2)CCN(c2nc[nH]c3nccc2-3)CC1 — result for “incidence of Fatigue”: 57.1% (metastatic CRPC patients; 400 mg b.i.d., any grade, treatment-related, with: enzalutamide 160 mg daily).
C[C@@H](Oc1ccc(S(C)(=O)=O)cc1C(=O)N1C[C@@H]2C[C@]2(c2cc(C(F)(F)F)on2)C1)C(F)(F)F: “fraction excreted in urine at steady state” 5.69% (young healthy humans, urine; oral, 50 mg once daily, 0 to 24 h, multiple dosing).
